Results of several laboratories.
Parts stem from different laboratories: compare values within a part only. pIC50: −log10 of the molar value.
Sequence of UniProt Q9Y337 (whole entry, looked up): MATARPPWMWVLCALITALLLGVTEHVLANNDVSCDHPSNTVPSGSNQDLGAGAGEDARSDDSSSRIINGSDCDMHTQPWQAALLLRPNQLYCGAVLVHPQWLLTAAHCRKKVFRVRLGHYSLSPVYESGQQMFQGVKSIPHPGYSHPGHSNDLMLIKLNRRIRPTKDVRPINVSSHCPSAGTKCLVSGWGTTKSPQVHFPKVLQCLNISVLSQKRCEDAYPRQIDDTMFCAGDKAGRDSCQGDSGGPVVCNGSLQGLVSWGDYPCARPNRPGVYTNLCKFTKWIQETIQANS

Study 1
Target: Ras GTPase-activating protein-binding protein 1, C-terminal RGG region (G3BP1, Homo sapiens, UniProt Q13283)
Sequence of UniProt Q13283 (whole entry, looked up): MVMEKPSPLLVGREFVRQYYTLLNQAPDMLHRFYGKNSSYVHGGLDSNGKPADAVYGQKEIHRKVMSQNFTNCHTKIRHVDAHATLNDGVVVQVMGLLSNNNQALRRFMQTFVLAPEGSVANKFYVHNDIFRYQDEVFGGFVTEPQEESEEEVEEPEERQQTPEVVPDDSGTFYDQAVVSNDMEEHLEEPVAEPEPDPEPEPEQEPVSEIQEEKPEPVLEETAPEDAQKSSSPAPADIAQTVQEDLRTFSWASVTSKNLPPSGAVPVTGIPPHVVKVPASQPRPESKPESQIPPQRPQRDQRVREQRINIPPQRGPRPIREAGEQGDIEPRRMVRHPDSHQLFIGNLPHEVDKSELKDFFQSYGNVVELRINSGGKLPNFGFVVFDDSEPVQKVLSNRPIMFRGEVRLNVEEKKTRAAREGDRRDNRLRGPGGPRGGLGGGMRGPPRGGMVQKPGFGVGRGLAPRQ
Method: RNA Bind-n-Seq
Molecule type: RNA
Medium: in vitro
Concentration: 1 µM
Setting: whole 134-nt RNA, ends assumed
Together with: 150 mM KCl
Baseline: input library
Direction: higher = stronger binding
Measurement: log2 enrichment
All sequences stand within: GGGAGUUCUACAGUCCGACGAUC … UGGAAUUCUCGGGUGUCAAGG
CUGUGCUACACAUCGUAUGUACCGAAUCAAACCCCCCCAAACCCCCCCAAACCCCCCCAAAAAAGUAUUAUGUUACGCCGUUCGGAUCUG: -0.876
AAGUCCUGUGCUACACAUCGUAUGUACCGAAUCGGGGCCCGGGCCCGGGCCCGGGGAAAGUAUUAUGUUACGCCGUUCGGAUCUGCACUU: -2.39
ACCAUGCAGGUGGGCAUCUUUGGGAAGUGGGGCAAGGGGGGGAAAGGGAGGGGGGUAACACUUUGGGAACAGGUGGUCCCAGGUCGUUUC: -0.468
AAAGCAAGAGAUGGCUAGUGCUUCAUCCAGCCAAAGAGGUAUGCUUGUUGCUUAAUUAAACCUUAAAGGUAACUUUGAGUUACUCCAGUA: -1.61
AAGUCCUGUGCUACACAUCGUAUGUACCGAAUCGGGAAAGGGUUUUUUUGGGUGGGAAAGUAUUAUGUUACGCCGUUCGGAUCUGCACUU: 0.605
GCAGGAAGUAAAAACAAAUGGAAAUGCUUCGGAUAGUCGCAGGGGUGGGGGUUGCUAAGGAAAGGGUGGGAUGGGAGUGGGUAAAGAGUU: 0.858
UCCUCAAGUCCUGUGCUACACAUCGUAUGUACCGAAUCGGGUGGUGGUGGGAAAGUAUUAUGUUACGCCGUUCGGAUCUGCACUUCCAGC: -0.216
UCAAGUCCUGUGCUACACAUCGUAUGUACCGAAUCGGUGGUUUUUUUGGAAAGGAAAGUAUUAUGUUACGCCGUUCGGAUCUGCACUUCC: -1.29

Study 2
Target: HLA class I histocompatibility antigen, A alpha chain, allele A*80:01 (Homo sapiens, UniProt P04439)
Observed: peptide-MHC binding
Molecule type: peptide
Concentration: concentration not given
Measurement: binding
RGRKPIFRK: inactive
LMRRFRFTV: inactive
HSNLNDTTY: inactive
ILNSDDEQA: inactive

Study 3
Target: UBE2D3 UBC core domain (UniProt P61077)
Method: yeast two-hybrid
Medium: yeast
Setting: mostly zero background
Baseline: not given
Direction: higher = stronger interaction
Measurement: lacZ reporter activity
B1: TRIM5 RING domain (UniProt Q9C035); chain LREVKLSPEGQKVDHCARHGEKLLLFCQEDGKVICWLCERSQEHRGHHTFLTEEVAREYQVKL
B2: SH3RF2 RING domain (UniProt Q8TEC5); chain DDLTLLDLLECPVCFEKLDVTAKVLPCQHTFCKPCLQRVFKAHKELRCPECRTPVFSNIEAL
B3: TRIM13 RING domain (UniProt O60858); chain MELLEEDLTCPICCSLFDDPRVLPCSHNFCKKCLEGILEGSVRNSLWRPAPFKCPTCRKETSATGINS
B4: TRIML1 RING domain (UniProt Q8N9V2); chain LMENLREELTCFICLDYFSSPVTTECGHSFCLVCLLRSWEEHNTPLSCPECWRTLEGPHFQS
B5: TRIM24 RING domain (UniProt O15164); chain EAARLNLLDTCAVCHQNIQSRAPKLLPCLHSFCQRCLPAPQRYLMLPAPMLGSAETPPPVPAPGSPVSGSSPFATQVGVIRCPVCSQECAERHII
B6: VPS41 RING domain (UniProt P49754); chain KGVLVDEENICESCLSPILPSDAAKPFSVVVFHCRHMFHKECLPMPSMNSAAQFCNICSAKNRGPGSAI
Construct (chain): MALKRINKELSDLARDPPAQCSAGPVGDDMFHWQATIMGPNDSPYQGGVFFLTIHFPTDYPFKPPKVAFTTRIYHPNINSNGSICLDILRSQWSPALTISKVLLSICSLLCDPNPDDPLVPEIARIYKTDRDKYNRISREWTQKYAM
VEPSEENSKDCVVCQNGTVNWVLLPCRHTCLCDGCVKYFQQCPMCRQFVQESFALC (CGRRF1 RING domain (UniProt Q99675)): 0
B1 (TRIM5 RING domain): 0
B2 (SH3RF2 RING domain): 0
B3 (TRIM13 RING domain): 0
B4 (TRIML1 RING domain): 0
MPIRALCTICSDFFDHSRDVAAIHCGHTFHLQCLIQWFETAPSRTCPQCRIQVGKRTIIN (TRAIP RING domain (UniProt Q9BWF2)): 0
B5 (TRIM24 RING domain): 0
ASLPTSEEDLCPICYAHPISAVFQPCGHKSCKACINQHLMNNKDCFFCKTTIVSVEDWE (RNF123 RING domain (UniProt Q5XPI4)): 0
B6 (VPS41 RING domain): 0

Other studies, line by line
N=C(N)c1ccc2cc(OC(=O)c3ccc(N=C(N)N)cc3)ccc2c1
pIC50 (Kallikrein-5 (Homo sapiens, UniProt Q9Y337)): 6.20
